Results gathered from unrelated publications.
Every numbered part comes from another study and shows a few of its results, in no order.
Sequence of UniProt P42681 (whole entry, looked up): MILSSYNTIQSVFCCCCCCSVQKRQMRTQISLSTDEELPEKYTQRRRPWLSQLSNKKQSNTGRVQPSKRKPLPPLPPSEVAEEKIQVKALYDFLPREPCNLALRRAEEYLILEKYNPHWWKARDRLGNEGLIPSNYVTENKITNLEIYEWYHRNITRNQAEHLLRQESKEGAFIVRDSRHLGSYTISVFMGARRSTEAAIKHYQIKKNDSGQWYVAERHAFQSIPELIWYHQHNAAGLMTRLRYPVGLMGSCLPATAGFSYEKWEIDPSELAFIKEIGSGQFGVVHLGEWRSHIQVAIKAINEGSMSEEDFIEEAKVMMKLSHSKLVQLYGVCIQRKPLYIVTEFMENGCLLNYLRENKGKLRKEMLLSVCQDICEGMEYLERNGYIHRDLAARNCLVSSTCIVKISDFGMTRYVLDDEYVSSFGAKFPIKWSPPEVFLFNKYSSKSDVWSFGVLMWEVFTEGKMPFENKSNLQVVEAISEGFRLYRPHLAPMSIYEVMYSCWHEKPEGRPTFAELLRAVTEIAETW
Sequence of UniProt P78362 (whole entry, looked up): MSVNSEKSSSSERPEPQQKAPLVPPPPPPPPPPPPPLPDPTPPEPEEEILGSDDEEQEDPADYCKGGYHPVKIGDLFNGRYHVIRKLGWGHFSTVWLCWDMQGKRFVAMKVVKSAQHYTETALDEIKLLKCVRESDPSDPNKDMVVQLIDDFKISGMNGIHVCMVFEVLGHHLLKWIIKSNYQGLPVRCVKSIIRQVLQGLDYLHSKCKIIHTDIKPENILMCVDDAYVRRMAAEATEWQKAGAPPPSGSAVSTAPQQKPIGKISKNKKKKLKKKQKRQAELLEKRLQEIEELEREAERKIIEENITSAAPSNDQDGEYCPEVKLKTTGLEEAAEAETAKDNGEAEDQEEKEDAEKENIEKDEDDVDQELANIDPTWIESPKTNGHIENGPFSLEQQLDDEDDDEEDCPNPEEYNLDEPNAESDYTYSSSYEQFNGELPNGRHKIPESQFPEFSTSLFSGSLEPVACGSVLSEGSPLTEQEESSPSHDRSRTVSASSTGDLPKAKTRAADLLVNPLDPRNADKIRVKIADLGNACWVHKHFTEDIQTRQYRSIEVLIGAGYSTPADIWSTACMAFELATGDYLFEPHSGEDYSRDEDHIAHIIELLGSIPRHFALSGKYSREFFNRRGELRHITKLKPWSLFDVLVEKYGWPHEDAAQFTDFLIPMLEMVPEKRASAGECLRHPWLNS
Sequence of UniProt O75676 (whole entry, looked up): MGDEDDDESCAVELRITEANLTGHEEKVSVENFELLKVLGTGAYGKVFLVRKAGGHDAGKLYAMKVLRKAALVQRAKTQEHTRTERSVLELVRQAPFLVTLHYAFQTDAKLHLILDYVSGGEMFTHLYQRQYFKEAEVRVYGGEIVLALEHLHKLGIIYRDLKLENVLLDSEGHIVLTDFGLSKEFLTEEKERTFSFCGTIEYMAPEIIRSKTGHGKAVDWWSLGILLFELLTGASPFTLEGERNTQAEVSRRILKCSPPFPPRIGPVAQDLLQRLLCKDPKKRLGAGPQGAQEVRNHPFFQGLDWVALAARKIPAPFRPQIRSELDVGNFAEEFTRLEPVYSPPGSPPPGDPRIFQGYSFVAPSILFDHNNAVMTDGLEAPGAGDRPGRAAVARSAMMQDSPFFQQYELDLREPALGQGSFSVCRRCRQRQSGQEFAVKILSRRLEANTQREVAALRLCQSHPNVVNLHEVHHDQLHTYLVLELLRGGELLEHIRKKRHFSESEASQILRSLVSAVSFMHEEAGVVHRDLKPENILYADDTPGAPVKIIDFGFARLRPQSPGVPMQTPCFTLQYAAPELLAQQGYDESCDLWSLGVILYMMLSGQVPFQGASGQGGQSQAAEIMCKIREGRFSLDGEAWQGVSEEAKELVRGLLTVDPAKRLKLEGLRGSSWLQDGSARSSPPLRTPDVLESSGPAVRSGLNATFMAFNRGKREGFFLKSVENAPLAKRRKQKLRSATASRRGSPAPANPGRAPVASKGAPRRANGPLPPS
Sequence of UniProt P54756 (whole entry, looked up): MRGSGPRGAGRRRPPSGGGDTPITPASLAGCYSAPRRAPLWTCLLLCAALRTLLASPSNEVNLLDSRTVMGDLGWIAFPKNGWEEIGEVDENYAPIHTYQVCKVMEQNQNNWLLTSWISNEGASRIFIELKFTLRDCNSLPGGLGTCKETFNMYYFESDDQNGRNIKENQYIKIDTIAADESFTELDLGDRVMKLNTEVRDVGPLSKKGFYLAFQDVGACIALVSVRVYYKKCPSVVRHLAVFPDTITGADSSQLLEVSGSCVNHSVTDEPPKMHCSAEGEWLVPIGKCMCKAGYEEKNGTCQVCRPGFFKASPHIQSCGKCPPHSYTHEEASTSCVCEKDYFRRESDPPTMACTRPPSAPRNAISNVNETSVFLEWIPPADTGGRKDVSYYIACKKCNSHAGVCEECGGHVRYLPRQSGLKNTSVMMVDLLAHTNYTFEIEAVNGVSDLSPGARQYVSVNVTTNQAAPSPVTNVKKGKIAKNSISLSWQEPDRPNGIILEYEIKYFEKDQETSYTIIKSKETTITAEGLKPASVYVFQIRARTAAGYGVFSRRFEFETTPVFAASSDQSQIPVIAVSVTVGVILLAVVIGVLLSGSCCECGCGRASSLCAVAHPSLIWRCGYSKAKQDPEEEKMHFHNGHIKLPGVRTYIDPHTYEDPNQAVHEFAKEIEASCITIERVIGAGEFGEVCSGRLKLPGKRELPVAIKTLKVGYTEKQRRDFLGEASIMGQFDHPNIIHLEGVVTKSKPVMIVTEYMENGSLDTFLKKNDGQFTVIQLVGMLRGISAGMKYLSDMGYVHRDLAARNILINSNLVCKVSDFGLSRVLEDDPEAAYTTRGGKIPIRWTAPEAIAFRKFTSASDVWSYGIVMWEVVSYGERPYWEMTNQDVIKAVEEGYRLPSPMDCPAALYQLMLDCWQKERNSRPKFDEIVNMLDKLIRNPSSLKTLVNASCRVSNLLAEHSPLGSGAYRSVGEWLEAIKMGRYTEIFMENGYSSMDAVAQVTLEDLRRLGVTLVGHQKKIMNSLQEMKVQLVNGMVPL
Sequence of UniProt P49759 (whole entry, looked up): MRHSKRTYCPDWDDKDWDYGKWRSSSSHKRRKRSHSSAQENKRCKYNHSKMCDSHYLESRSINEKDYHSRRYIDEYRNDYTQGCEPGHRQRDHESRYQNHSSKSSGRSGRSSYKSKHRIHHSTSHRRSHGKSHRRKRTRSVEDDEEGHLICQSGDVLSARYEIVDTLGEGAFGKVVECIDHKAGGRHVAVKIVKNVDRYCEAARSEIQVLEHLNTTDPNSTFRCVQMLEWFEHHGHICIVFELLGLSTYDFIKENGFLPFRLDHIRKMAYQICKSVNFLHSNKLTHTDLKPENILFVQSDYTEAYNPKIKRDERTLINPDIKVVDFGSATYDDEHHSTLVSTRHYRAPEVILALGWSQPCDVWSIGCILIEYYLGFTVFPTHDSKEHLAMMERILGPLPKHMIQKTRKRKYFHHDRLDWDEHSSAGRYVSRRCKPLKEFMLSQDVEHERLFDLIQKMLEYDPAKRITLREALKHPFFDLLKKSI
Sequence of UniProt P48729 (whole entry, looked up): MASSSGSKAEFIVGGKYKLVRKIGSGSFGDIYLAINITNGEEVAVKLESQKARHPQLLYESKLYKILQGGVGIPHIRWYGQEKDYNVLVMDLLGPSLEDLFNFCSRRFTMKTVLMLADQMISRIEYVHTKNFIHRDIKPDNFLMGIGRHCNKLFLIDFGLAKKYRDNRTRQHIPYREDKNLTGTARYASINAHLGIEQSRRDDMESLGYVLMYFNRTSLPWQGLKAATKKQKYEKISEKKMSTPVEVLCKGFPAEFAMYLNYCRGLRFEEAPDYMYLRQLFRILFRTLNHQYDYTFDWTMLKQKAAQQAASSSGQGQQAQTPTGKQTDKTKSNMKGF
Sequence of UniProt Q15208 (whole entry, looked up): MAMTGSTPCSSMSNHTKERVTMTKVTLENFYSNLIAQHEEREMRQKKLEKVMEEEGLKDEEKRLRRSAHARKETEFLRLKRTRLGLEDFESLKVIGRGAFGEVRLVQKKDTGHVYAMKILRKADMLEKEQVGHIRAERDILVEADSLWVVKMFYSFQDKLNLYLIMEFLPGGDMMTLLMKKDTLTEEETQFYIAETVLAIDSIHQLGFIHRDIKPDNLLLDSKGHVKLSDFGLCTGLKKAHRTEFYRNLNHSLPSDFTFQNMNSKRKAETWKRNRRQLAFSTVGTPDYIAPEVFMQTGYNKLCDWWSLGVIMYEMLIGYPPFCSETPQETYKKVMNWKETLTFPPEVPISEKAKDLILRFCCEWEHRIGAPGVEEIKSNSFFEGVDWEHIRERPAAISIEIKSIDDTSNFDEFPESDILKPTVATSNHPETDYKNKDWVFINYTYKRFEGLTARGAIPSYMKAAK

Study 1
Target: Cytoplasmic tyrosine-protein kinase BMX (BMX, Homo sapiens, UniProt P51813)
Sequence of UniProt P51813 (whole entry, looked up): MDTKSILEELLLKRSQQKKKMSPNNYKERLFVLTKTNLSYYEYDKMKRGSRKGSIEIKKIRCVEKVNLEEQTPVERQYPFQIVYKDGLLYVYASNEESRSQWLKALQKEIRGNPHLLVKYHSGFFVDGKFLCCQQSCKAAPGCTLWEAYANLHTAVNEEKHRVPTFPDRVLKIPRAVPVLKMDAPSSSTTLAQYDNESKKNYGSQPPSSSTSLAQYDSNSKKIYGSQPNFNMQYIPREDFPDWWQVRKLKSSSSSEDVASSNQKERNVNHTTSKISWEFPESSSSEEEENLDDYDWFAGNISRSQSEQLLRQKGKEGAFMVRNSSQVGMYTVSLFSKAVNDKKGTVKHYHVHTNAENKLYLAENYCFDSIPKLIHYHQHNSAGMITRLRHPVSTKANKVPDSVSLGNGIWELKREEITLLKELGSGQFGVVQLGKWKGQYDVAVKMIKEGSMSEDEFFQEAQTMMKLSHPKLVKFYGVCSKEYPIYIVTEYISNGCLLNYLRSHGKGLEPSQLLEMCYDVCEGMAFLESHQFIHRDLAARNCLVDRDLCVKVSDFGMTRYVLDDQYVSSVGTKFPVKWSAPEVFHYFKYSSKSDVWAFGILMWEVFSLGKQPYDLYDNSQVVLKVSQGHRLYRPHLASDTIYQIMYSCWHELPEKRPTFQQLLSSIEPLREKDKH
Observed: enzyme activity
Mode: inhibitor
Tested at: 0.5 µM
Reference: control
For `NCCNc1ncc(C(N)=O)c(Nc2cccc(C(F)(F)F)c2)n1`, the remaining activity was 93%.
The remaining activity of `Nc1ccc2ncnc(NCCc3ccc(Oc4ccccc4)cc3)c2c1` is reported as 102%.
`Nc1[nH]nc2nc3ccccc3nc12` has a remaining activity of 99.5%.
With `O=S(=O)(c1cccc2cnccc12)N1CCCNCC1` the remaining activity was 104%.
With `O=C1NC(=O)C(c2cn(CCCO)c3ncccc23)=C1c1cnccn1` the remaining activity was 97.8%.
`COc1ccc(CNC(=O)Nc2ncc([N+](=O)[O-])s2)cc1` gave a remaining activity of 90.8%.
The remaining activity of `N#CC(C#N)=C(N)/C(C#N)=C/c1ccc(O)cc1` is reported as 80%.
For `CCOC(=O)c1c(C)[nH]c(/C=C2\C(=O)Nc3ccccc32)c1C`, the remaining activity was 93.5%.
With `Cc1ccc(NC(=O)c2ccc(CN3CCN(C)CC3)cc2)cc1Nc1nc(-c2cccnc2)cs1` the remaining activity was 104%.
`O=C(CCCc1ccc(-c2ccccc2F)cc1)Nc1ccc(O)cc1` has a remaining activity of 99.6%.
`OCC(O)CCON=C1C(c2c(O)[nH]c3ccccc23)=Nc2ccccc21` (stereo not shown) gave a remaining activity of 40.2%.
For `O=C(Nc1cccc(Nc2cc(Nc3cccc(C(F)(F)F)c3)ncn2)c1)C1CC1`, the remaining activity was 93.7%.

Study 2
Compound: O=C(Nc1cccnn1)N1CCC(=Cc2cccc(Oc3ccc(C(F)(F)F)cn3)c2)CC1
Observed: cell-free assay
Method: competition with immobilised ligand
Tested at: 1 µM
The remaining binding was 100% (Ribosomal protein S6 kinase alpha-4, C-terminal kinase domain (RPS6KA4, Homo sapiens, UniProt O75676)).
For Rho-associated protein kinase 1 (ROCK1, Homo sapiens, UniProt Q13464): remaining binding read 100%.
For Ephrin type-A receptor 5 (EPHA5, Homo sapiens, UniProt P54756): remaining binding read 98%.
The remaining binding was 100% (Dual specificity mitogen-activated protein kinase kinase 2 (MAP2K2, Homo sapiens, UniProt P36507)).
It gave 100% for remaining binding (Serine/threonine-protein kinase 38 (STK38, Homo sapiens, UniProt Q15208)).
The remaining binding was 95% (Dual specificity protein kinase CLK1 (CLK1, Homo sapiens, UniProt P49759)).
The remaining binding was 93% (Protein kinase C delta type (PRKCD, Homo sapiens, UniProt Q05655)).
For Hepatocyte growth factor receptor (MET, Homo sapiens, UniProt P08581): remaining binding read 100%.
For 1-phosphatidylinositol 3-phosphate 5-kinase (PIKFYVE, Homo sapiens, UniProt Q9Y2I7): remaining binding read 100%.
Tyrosine-protein kinase TXK (TXK, Homo sapiens, UniProt P42681) — remaining binding: 100%.
It gave 100% for remaining binding (Serine/threonine-protein kinase PLK2 (PLK2, Homo sapiens, UniProt Q9NYY3)).
For BDNF/NT-3 growth factors receptor (NTRK2, Homo sapiens, UniProt Q16620): remaining binding read 100%.
It gave 100% for remaining binding (SRSF protein kinase 2 (SRPK2, Homo sapiens, UniProt P78362)).
The remaining binding was 100% (Casein kinase I isoform alpha (CSNK1A1, Homo sapiens, UniProt P48729)).
Mitogen-activated protein kinase kinase kinase 14 (MAP3K14, Homo sapiens, UniProt Q99558) — remaining binding: 100%.

Study 3
Target: RNA binding protein fox-1 homolog 2, RRM domain, GST-SBP tag (RBFOX2, Homo sapiens, UniProt O43251-10, residues 100-194)
Method: RNA Bind-n-Seq
Form: RNA
Medium: in vitro
Tested at: 365 nM
Setting: natural RNA segment, single round, ends assumed
Reference: no-protein control
Direction: higher = stronger binding
All sequences stand within: GGGAGUUCUACAGUCCGACGAUC … UGGAAUUCUCGGGUGCCAA
Target sequence (chain): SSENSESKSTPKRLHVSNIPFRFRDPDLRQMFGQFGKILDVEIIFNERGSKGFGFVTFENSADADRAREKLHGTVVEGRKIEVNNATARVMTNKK
Under “RBNS enrichment (R)”, `AGUUCCUCACAUACAGGACUUUUUAAGCAACACCACAUCUUGUGCUUCUUUGUAGCAGGGUAAAUCGUCCUGUCAAAGGGAGUUGCUGGAAUAAUGGGCCAAACAUCUGG` is recorded as 0.277.
`UUUGAAUCCUUAUGUUGAUGAUGGUGUCUUUCUACACACUCACUGCAACUACUCAGGAAUUAUAAAGAUUUUCUGAAAUCUGAGAAGUGGAAUAAGGAAACCCAGUGGAG` — result for “RBNS enrichment (R)”: 0.473.
`CCCUGCCCUGGUCCUCUUCCUGCCUCCUGUAAAUAUCUGUAUCUAGACCAGAAUAUUUUGUCCAAGUAUAAAACAACAACAACAAAAAAUCAUGGUGUCAUUGUCUGGGG`: “RBNS enrichment (R)” 0.445.
`GGGUUGCCUUGGCAGCAGAGGCUCCUCUGAUGGCUGACAUCAGUCACUGCGUCUGGGCCUGAGACGUGCAUGGAGGGCUGUAAAGCCACGGAUUCCCCUCGCUGGAGAGG`: “RBNS enrichment (R)” 8.24.
Under “RBNS enrichment (R)”, `GCCAGGACAUCCUGCUAUCAAUCAGAAGGACUUGGACUCUCCUGCAGAGUGCAAGUGUGGGUGUCGGUGUGAGUUCACCUAACAAAUCAUGACCUUUAUCAUCAACUCUG` is recorded as 0.207.
For `CGAACUGCCUGUUCUCUAAACCUCAAGGAGAAAAACUGGAGUUAAUGGGUAAUAAGGUGCAAAAUAAAGGGGUAAGGGGGGAGUUUUCUAUCUGUCCUGUUCUCUGUUAU`, “RBNS enrichment (R)” read 0.294.
`AUUAACCCCACAGAACUAGCAUUUUCUAAAGUAUGUAAUCUGUUAAUUUUUAACCAGAUAAGGCUUUCUAUGCAUCCACAGGUGCCUUUGUUUUAACUGUGGAUUUAUUG` — result for “RBNS enrichment (R)”: 0.759.
`UGAAGUUAUCUCCUUGGGCACUUGUCAAAUAUGCUGCUUUUAACCGGCGAUUCUAAUGGGAUUGACUGACUGGAGACCUCACAUCAUGUUCACAUUUAACCUUAAACACC`: “RBNS enrichment (R)” 0.247.

Study 4
Target: Sal-like protein 4, full length isoform B (SALL4, Homo sapiens, UniProt Q9UJQ4-2, residues 1-616)
Method: universal PBM
Form: double-stranded DNA, one strand shown
Medium: in vitro
Tested at: not given
Setting: 8-mer, flanks averaged, mean of replicates
Direction: higher = stronger binding
`AACCCGAG` has an E-score of -0.102.
For `AGTAGCAT`, the E-score was 0.0626.
The E-score of `ACCCTACT` is reported as -0.0269.
`CCGGTGAC` gave an E-score of -0.363.
The E-score of `AAAGGCGT` is reported as -0.112.
`GAGCGGGC` has an E-score of -0.345.
With `AAAGCTGT` the E-score was 0.119.
For `CAACAATC`, the E-score was 0.0986.

For quick reference, copied from above (study 2):
It gave 100% for remaining binding (SRSF protein kinase 2 (SRPK2, Homo sapiens, UniProt P78362)).
It gave 100% for remaining binding (Serine/threonine-protein kinase PLK2 (PLK2, Homo sapiens, UniProt Q9NYY3)).
The remaining binding was 95% (Dual specificity protein kinase CLK1 (CLK1, Homo sapiens, UniProt P49759)).
For 1-phosphatidylinositol 3-phosphate 5-kinase (PIKFYVE, Homo sapiens, UniProt Q9Y2I7): remaining binding read 100%.
The remaining binding was 93% (Protein kinase C delta type (PRKCD, Homo sapiens, UniProt Q05655)).
The remaining binding was 100% (Casein kinase I isoform alpha (CSNK1A1, Homo sapiens, UniProt P48729)).
